# Published values collected from several papers.
# Lines come from different studies, so protocols differ.
# Technique: steady-state kinetics
# B1: onr (Enterobacter cloacae, UniProt P71278); chain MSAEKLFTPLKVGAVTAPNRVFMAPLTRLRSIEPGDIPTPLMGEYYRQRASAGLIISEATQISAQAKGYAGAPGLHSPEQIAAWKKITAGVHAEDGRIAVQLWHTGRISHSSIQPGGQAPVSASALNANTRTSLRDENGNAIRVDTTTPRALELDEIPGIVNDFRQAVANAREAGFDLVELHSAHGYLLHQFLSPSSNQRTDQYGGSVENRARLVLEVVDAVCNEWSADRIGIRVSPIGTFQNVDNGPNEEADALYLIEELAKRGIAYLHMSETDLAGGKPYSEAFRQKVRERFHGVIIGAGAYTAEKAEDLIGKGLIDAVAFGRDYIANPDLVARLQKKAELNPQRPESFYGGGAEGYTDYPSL
# B2: GTPBP3 E142K/R136E (Homo sapiens, UniProt Q969Y2); chain TRRSSGAPAPGSGATIFALSSGQGRCGIAVIRTSGPASGHALRILTAPRDLPLARHASLRLLSDPRSGEPLDRALVLWFPGPQSFTGEDCVEFHVHGGPAVVSGVLQALGSVPGLEPAEAGKFTRRAFANGKLNLTEVEGLADLIHAETEAQRRQALRQLDGELGHLCRGWAETLTKALAHVEAYIDFGEDDNLEEGVLEQADIEVRALQVALGAHLRDARRGQRLRSGVHVVVTGPPNAGKSSLVNLLSRKPVSIVSPEPGTTRDVLETPVDLAGFPVLLSDTAGLREGVGPVEQEGVRRARERLEQADLILAMLDASDLASPSSCNFLATVVASVGAQSPSDSSQRLLLVLNKSDLLSPEGPGPGPDLPPHLLLSCLTGEGLDGLLEALRKELAAVCGDPSTDPPLLTRARHQHHLQGCLDALGHYKQSKDLALAAEALRVARGHLTRLTGGGGTEEILDIIFQDFCVGK
# B3: enzyme (Bacillus pumilus, UniProt A8FFI9); chain EARSIAWSVDEFFKNREGTFVIQEVKEKSPWVYNKKRAKERFAPQSTFKVANALIGLQTGAVRDEYDIKYWDGVKREIDNWNRDHTLGSGMRDSVVWYYQAMARDIGEERMNHWVKAIHYGNKDISGGIDQFWLSSTLRISPIEQVRFLKQLYEETLPFDLKNMRTVKRMMVQEEEKHATLYGKTGSGSDIGWYVGFIKHEHKTYILATNIKGTGIEAKDITYRILKKYHLMEASV
# B4: protein (Rheum palmatum, UniProt A0A7L9A2S6); chain MKKTELVFLPAPAPGHLVSTVEFSKRLIARDARLTVTILVISSPFSRGAQTNPSPGIRYVTLPQVDVPQHLMKDSIEHTISVYIASHAPHVRDAVAALQTESTVHVAGLFLDMFCTPMIDVANELGLPSYVFFCSSAGFLGLLLHLPVHSQPRFDETGLDVLIPSFQNPVPTRVLPRFGFNELGYKSFMDHAKRFGETKGIIINTYAELEPYALKSLLDAYDTAPVYAVGPVLDLRSQVHMPCDAAERARIMGWLDKQPDSSVVFLCFGSGGSFSEHQIREISKGLSQSGQRFLWSVRKPPTGGLVKPTEYTETELRSVLGDEFWSLLDEGERGVVCGWAPQVEVLGHKSVGAFVSHCGWNSTLESLWFGKPMVTWPLYAEQQMNAFELVKELGIAVELTLDYRLHSSEVVEAREVERAVRRVMDENNPVRYKVKEMAEVCRATLVEGGSSFVCVDRLISGFLGEIN
# B5: MTRR A129T (Homo sapiens, UniProt Q9UBK8); chain MRRFLLLYATQQGQAKAIAEEICEQAVVHGFSADLHCISESDKYDLKTETAPLVVVVSTTGTGDPPDTARKFVKEIQNQTLPVDFFAHLRYGLLGLGDSEYTYFCNGGKIIDKRLQELGARHFYDTGHTDDCVGLELVVEPWIAGLWPALRKHFRSSRGQEEISGALPVASPASSRTDLVKSELLHIESQVELLRFDDSGRKDSEVLKQNAVNSNQSNVVIEDFESSLTRSVPPLSQASLNIPGLPPEYLQVHLQESLGQEESQVSVTSADPVFQVPISKAVQLTTNDAIKTTLLVELDISNTDFSYQPGDAFSVICPNSDSEVQSLLQRLQLEDKREHCVLLKIKADTKKKGATLPQHIPAGCSLQFIFTWCLEIRAIPKKAFLRALVDYTSDSAEKRRLQELCSKQGAADYSRFVRDACACLLDLLLAFPSCQPPLSLLLEHLPKLQPRPYSCASSSLFHPGKLHFVFNIVEFLSTATTEVLRKGVCTGWLALLVASVLQPNIHASHEDSGKALAPKISISPRTTNSFHLPDDPSIPIIMVGPGTGIAPFIGFLQHREKLQEQHPDGNFGAMWLFFGCRHKDRDYLFRKELRHFLKHGILTHLKVSFSRDAPVGEEEAPAKYVQDNIQLHGQQVARILLQENGHIYVCGDAKNMAKDVHDALVQIISKEVGVEKLEAMKTLATLKEEKRYLQDIWS
# B6: sacB Y196F (Priestia megaterium, UniProt D5DC07); chain KGNDSKDFNNSYGISHITRDNMVKIPQQQNSDQFKVPAFDESTIKNIASAKGKNASGNTIDLDVWDSWPLQNADGTVATYHGYQIVFALAGDPKDSNDTSVYLFYKKAGDKSIDSWKNAGRVFKDSDKFVPNDPHLKNQTQEWSGSGTLTKDGKVRLFYTDYSGKQFGKQTLTTAQVNMSQPNDNTLKVDGVEDYKSIFDGDGKIYQTVQQFIDEGGYDTGDNHTLRDPHYIEDNGHKYLVFEANTGTEDGYQGEDSLYNRAYYGGNNPFFQSEKKKLLEGSNKEKASLANGALGIIELNDDYTLKKVMKPLITSNTVTDEIERANIFKKDGKWYLFTDSRGSKMTIDGIGQDDVYMLGYVSNTLTGKYKPLNDTGLVLHMDLDPNDKTFTYSHFAVPQTKGDNVVITSYMTNRGFYEDNHSTFAPSFLVNIDGSKTSVVKDRVLEQGQLTVDED
# B7: enzyme (Metarhizium robertsii, UniProt E9F050); chain MGSTSEKPLLLFTSFPGEGHTNPVLAIAKHLIQRGHTVAYLSTSRYREKILSIGAEFLSAEWPIPGLDPQAGTALQSMPIGVGRFAYLLIHIFYKWLVLRVDAVSDALEFLRRREPGREIIVIEDILNMSTMPYRYGRPLPAGFNTMPKTVGISPVPLMLQSQDTAPFMLGLPPDASESGRLRNKALNKLVNEGPMKPMVDVWKEVMTQCGCTVTPEGSPLNACFDAYDATFMLCSPSLEYPISDLPPHVRFAGCLPRRGIDAHTKHPAWWSEVTDTAPSTGPRTTKIVFVSQGTVSTNWNELVMPTLAALAGRDDTLVIAALGLPGAILPEGFDVPSNARVADYVAYDAILPYADVFVSNAGYGAFGHAVMNGVPAIFAGETEEKPEVAMRAEWAGFAYNLKTQTPSADQIRDAVDAVFADDRYRVRAGELRRENEEMDALGMIERQISSVPWVVNGDT
# B8: protein (Chlorobium limicola, UniProt B3ECE3); chain MQNKNFRAPQSEAIGILYKLIETGSKHKNMYDHTEITTDSLLALLGSEKVKIIDVRSADAYNGWRMRGEVRGGHIKGAKSLPAKWLTDPEWLNIVRFKQIRPEDAIVLYGYTPEECEQTATRFKENGYNNVSVFHRFHPDWTGNDAFPMDRLEQYNRLVPAEWVNGLISGEEIPEYDNDTFIVCHAHYRNRDAYLSGHIPGATDMDTLALESPETWNRRTPEELKKALEEHGITASTTVVLYGKFMHPDNADEFPGSAAGHIGAIRLAFIMMYAGVEDVRVLNGGYQSWTDAGFAISKDDVPKTTVPEFGAPIPSRPEFAVDIDEAKEMLQSEDSDLVCVRSYPEYIGEVSGYNYIKKKGRIPGAIFAECGSDAYHMENYRNHDHTTREYHEIEDIWAKSGIIPKKHLAFYCGTGWRGSEAWFNALLMGWPRVSVYDGGWFEWSNDPENPYETGVPK
# B9: Comt (Rattus norvegicus, UniProt P22734); chain MPLAAVSLGLLLLALLLLLRHLGWGLVTIFWFEYVLQPVHNLIMGDTKEQRILRYVQQNAKPGDPQSVLEAIDTYCTQKEWAMNVGDAKGQIMDAVIREYSPSLVLELGAYCGYSAVRMARLLQPGARLLTMEMNPDYAAITQQMLNFAGLQDKVTILNGASQDLIPQLKKKYDVDTLDMVFLDHWKDRYLPDTLLLEKCGLLRKGTVLLADNVIVPGTPDFLAYVRGSSSFECTHYSSYLEYMKVVDGLEKAIYQGPSSPDKS
# UniProt Q3SY77, sequence (whole entry, looked up): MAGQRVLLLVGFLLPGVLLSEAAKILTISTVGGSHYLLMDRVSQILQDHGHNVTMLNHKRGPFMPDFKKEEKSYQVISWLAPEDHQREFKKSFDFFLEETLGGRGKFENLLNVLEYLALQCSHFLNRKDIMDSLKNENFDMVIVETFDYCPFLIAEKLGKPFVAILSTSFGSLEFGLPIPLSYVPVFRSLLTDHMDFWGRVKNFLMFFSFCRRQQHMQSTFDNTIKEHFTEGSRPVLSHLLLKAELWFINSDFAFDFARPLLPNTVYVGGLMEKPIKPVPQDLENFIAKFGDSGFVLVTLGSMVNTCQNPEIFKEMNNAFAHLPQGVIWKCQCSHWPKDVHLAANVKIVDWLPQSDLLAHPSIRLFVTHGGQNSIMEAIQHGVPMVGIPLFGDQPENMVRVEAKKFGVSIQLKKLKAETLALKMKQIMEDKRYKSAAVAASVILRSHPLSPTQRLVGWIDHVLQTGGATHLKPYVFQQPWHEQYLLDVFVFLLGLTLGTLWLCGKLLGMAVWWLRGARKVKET
# UniProt Q9GTP5, sequence (whole entry, looked up): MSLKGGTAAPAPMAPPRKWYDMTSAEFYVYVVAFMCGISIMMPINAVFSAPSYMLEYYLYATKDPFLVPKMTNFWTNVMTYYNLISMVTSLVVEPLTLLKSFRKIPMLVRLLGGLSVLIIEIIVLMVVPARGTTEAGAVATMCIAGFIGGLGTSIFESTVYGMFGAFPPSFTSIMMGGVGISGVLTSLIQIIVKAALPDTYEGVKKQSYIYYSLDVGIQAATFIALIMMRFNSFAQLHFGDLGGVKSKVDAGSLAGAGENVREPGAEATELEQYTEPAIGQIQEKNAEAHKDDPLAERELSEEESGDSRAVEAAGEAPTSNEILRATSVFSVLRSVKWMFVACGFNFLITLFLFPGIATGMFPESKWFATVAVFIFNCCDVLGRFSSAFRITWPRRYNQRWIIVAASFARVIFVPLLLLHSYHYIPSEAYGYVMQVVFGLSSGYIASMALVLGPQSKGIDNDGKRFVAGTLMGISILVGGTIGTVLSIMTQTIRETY
Molecule,substrate,system,setting,Km [µM]
B1 (onr),CC1=CC(=O)N(c2ccccc2)C1=O,,"pH 7, 25 °C, apparent, anaerobic, with: NADPH 100 µM",3.1
B2 (GTPBP3 E142K/R136E),Nc1nc2c(ncn2[C@@H]2O[C@H](COP(=O)(O)OP(=O)(O)OP(=O)(O)O)[C@@H](O)[C@H]2O)c(=O)[nH]1,,"pH 8, 37 °C, KCl 300 mM",15.1
"CYP2C9 (Homo sapiens, UniProt P11712)",Cc1ccc(Cl)c(Nc2ccccc2C(=O)O)c1Cl,,"pH 7.4, Hill model, CYP2C9, metabolite, not purified",16.7
B3 (enzyme),CCN1CCN(C(=O)N[C@@H](C(=O)N[C@@H]2C(=O)N3[C@@H]2SC(C)(C)[C@@H]3C(=O)O)c2ccccc2)C(=O)C1=O,,pH 7,15
"UGT3A2 (Homo sapiens, UniProt Q3SY77)",O=c1ccn([C@@H]2O[C@H](CO[P@@](=O)(O)O[P@@](=O)(O)O[C@H]3O[C@H](CO)[C@@H](O)[C@H](O)[C@H]3O)[C@@H](O)[C@H]2O)c(=O)[nH]1,,"pH 7.4, 37 °C, not purified, with: 1-OH-pyrene 16 µM, MgCl2 10 mM, alamethicin",214
"protein (Crithidia fasciculata, UniProt Q9GTP5)",Nc1ncnc2c1ncn2[C@@H]1O[C@H](CO)[C@@H](O)[C@H]1O,L. donovani,not purified,59
B4 (protein),COc1cc(-c2oc3cc(O)cc(O)c3c(=O)c2O)ccc1O,,"pH 7.5, 35 °C, apparent, with: UDP-glucose",663
B5 (MTRR A129T),O=C1C(Cl)=CC(=Nc2ccc(O)cc2)C=C1Cl,,"pH 7.5, 37 °C, substoichiometric FMN, with: NADPH",1.1
B6 (sacB Y196F),OC[C@H]1O[C@@](CO)(O[C@H]2O[C@H](CO)[C@@H](O)[C@H](O)[C@H]2O)[C@@H](O)[C@@H]1O,,pH 6.9,29800
B7 (enzyme),O=c1ccn([C@@H]2O[C@H](COP(=O)(O)OP(=O)(O)O[C@H]3OC[C@@H](O)[C@H](O)[C@H]3O)[C@@H](O)[C@H]2O)c(=O)[nH]1,,"pH 7.5, 30 °C",110
B8 (protein),SSSS,,"pH 8, 25 °C, polysulfide mixture, with: hercynine 0.5 mM",18.1
B9 (Comt),O=c1oc2c(O)c(O)ccc2cc1-c1nc2ccccc2s1,rat liver S9,"pH 7.4, 37 °C",1.1

# Excerpt of the above:
Molecule,substrate,system,setting,Km [µM]
B2 (GTPBP3 E142K/R136E),Nc1nc2c(ncn2[C@@H]2O[C@H](COP(=O)(O)OP(=O)(O)OP(=O)(O)O)[C@@H](O)[C@H]2O)c(=O)[nH]1,,"pH 8, 37 °C, KCl 300 mM",15.1
